Published values pooled from the literature.
Compare with care: the assays were run in different laboratories. ± marks the error that the study gave.
IDE: Insulin-degrading enzyme (IDE, Homo sapiens, UniProt P14735)
PLEKHA6 PH domain: Pleckstrin homology domain-containing family A member 6, PH domain (PLEKHA6, Homo sapiens, UniProt Q9Y2H5)
Chain of UniProt Q9Y2H5 (whole entry, looked up): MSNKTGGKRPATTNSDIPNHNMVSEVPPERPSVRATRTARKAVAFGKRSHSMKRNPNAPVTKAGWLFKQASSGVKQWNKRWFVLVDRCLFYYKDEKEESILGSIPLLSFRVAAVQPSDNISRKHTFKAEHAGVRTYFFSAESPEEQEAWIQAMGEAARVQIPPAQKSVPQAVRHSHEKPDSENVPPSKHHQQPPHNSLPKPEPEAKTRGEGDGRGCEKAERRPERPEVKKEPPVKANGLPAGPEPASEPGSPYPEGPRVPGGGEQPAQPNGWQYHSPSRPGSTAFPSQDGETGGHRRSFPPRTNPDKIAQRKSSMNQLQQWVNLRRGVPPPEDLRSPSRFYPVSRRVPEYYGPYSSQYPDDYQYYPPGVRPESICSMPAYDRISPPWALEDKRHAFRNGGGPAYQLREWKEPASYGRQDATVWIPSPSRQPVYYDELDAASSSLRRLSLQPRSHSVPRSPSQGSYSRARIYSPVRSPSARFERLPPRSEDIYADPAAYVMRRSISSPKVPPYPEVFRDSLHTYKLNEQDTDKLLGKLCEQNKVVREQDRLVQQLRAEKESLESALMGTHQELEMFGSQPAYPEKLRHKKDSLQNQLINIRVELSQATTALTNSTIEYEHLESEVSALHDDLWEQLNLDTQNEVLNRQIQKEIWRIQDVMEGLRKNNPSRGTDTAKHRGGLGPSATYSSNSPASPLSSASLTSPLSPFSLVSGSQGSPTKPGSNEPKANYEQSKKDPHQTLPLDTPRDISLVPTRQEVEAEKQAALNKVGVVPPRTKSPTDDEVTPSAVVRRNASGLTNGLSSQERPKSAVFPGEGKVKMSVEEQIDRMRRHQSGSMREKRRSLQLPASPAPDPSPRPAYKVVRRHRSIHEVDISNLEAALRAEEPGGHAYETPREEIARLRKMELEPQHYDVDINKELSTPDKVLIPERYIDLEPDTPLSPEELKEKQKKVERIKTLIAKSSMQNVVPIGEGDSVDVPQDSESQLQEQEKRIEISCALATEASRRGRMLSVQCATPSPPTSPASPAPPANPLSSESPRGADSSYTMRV
Urea transporter 1: Urea transporter 1 (Homo sapiens, UniProt Q13336)
Chain of UniProt Q13336 (whole entry, looked up): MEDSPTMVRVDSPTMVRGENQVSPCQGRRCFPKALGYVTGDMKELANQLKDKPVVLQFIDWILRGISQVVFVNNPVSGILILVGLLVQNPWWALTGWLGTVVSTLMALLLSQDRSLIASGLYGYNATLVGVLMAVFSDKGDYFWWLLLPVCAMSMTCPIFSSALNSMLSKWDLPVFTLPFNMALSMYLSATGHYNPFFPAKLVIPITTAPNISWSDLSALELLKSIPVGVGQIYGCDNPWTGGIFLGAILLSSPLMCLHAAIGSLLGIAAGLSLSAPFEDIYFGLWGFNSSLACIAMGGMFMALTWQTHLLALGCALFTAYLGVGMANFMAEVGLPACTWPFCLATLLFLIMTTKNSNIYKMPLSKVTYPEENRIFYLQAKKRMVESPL
ELAVL1: ELAV-like protein 1 (ELAVL1, Homo sapiens, UniProt Q15717)
Chain of UniProt Q15717 (whole entry, looked up): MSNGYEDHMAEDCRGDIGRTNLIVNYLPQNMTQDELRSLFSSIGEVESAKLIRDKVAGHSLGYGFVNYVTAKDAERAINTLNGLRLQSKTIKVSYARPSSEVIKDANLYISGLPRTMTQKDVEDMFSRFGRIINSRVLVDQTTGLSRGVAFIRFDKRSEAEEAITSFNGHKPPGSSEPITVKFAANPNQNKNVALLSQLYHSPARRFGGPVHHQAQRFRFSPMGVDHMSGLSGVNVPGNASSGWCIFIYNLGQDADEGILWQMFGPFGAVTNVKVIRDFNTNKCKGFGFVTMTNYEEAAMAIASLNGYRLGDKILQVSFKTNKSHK
CYP2E1: Cytochrome P450 2E1 (CYP2E1, Homo sapiens, UniProt P05181)
Chain of UniProt P05181 (whole entry, looked up): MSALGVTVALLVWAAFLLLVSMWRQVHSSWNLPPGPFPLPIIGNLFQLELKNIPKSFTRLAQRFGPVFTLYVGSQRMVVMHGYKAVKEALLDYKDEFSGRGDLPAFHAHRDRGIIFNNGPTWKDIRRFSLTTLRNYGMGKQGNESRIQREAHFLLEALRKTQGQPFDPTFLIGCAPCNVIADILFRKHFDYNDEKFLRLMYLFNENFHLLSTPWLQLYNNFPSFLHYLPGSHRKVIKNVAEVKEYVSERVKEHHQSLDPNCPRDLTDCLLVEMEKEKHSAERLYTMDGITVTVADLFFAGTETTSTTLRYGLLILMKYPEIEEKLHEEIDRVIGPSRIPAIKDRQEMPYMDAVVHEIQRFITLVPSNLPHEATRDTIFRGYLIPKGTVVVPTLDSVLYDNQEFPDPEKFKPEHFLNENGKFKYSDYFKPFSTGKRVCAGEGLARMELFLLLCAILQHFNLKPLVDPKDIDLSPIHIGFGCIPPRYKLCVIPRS
Chain of UniProt Q9Y6L6 (whole entry, looked up): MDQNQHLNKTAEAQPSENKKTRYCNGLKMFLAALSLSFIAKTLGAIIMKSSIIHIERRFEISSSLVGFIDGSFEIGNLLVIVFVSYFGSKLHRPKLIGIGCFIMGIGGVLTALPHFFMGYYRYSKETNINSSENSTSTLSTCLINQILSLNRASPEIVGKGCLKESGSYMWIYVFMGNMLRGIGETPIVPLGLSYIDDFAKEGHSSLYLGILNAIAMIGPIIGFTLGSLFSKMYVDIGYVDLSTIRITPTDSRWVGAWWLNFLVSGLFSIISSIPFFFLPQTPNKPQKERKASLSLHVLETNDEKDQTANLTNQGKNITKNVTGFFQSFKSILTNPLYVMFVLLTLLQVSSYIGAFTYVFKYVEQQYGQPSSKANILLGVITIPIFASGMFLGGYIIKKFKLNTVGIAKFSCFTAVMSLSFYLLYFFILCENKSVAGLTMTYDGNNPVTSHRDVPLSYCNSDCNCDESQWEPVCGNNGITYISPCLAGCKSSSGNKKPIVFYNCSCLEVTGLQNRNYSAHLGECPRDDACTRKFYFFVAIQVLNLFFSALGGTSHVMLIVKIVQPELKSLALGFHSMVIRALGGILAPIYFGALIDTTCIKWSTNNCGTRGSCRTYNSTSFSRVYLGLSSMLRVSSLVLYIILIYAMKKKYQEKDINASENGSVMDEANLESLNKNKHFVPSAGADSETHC
Chain of UniProt P52790 (whole entry, unmodified, looked up): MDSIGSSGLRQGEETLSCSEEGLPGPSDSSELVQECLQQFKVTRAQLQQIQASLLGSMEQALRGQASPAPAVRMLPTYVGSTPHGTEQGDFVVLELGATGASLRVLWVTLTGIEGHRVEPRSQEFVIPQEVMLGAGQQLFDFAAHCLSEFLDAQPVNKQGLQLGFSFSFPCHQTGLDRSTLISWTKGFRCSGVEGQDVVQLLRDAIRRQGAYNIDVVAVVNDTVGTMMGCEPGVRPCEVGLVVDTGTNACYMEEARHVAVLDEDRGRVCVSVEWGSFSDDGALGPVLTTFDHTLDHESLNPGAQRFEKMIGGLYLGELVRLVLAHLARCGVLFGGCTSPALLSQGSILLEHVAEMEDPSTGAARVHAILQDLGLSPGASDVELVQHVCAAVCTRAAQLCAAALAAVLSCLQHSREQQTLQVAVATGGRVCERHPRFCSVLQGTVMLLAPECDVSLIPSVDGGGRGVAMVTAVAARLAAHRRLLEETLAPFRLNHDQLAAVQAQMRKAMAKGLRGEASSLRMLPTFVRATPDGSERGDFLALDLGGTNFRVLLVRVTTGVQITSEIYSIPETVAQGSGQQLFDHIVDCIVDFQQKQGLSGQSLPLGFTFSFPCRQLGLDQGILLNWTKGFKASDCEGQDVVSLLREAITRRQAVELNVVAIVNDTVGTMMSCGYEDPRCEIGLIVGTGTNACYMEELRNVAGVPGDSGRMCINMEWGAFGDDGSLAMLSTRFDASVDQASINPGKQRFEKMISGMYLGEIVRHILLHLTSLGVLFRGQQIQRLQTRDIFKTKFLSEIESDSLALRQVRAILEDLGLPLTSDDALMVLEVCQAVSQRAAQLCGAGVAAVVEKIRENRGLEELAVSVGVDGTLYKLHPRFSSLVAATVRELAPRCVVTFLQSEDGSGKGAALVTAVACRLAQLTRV
Chain of UniProt Q96NT5 (whole entry, unmodified, looked up): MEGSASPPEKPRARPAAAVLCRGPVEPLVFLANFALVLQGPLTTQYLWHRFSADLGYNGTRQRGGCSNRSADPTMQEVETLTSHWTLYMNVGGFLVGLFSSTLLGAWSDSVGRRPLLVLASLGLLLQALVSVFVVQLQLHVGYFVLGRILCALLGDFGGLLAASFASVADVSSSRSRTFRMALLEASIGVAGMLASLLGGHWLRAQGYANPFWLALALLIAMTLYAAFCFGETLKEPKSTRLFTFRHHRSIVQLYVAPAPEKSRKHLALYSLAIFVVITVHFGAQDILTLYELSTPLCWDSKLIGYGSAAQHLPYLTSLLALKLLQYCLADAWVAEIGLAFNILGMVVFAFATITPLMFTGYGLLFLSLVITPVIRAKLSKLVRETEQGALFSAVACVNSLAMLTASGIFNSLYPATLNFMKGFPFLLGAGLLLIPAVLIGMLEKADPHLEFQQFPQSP

| Compound | target | test | system | setting | measurement | result |
| --- | --- | --- | --- | --- | --- | --- |
| COCC(=O)N1CCCCN2[C@H](CO)[C@@H](c3ccc(-c4cccc(C)c4)cc3)[C@@H]2C1 | IDE | enzyme activity, inhibitor, fluorogenic kinetic |  | added: Mca-RPPGFSAFK(Dnp)-OH substrate | EC50 | 16 µM |
| CCOc1cccc(C(=O)CC(SCc2cccc(Br)c2)C(=O)O)c1 (centres unmarked) | PLEKHA6 PH domain | PLEKHA6 PI(4,5)P2 binding, fluorescence polarization |  | added: BODIPY-PI(4,5)P2 tracer | Ki | 32.5 ± 7.3 µM |
| NC(=S)c1cccnc1 | Urea transporter 1 | urea transport inhibition |  | added: thiourea | Ki | 100 µM |
| CC1CCCC(CC(=O)Nc2nnc(S(N)(=O)=O)s2)C1 (centres unmarked) | Enterococcus faecium γ-carbonic anhydrase | CO2 hydration, inhibitor, stopped-flow kinetics |  |  | Ki | 0.242 µM |
| NC(N)=S | Urea transporter 1 | urea transport |  | inhibitor inside only | Ki | 35000 µM |
| CN(C)c1ccc(C(=O)Nc2ccc3[nH]c(C(=O)NO)cc3c2)cc1 | ELAVL1 | Msi1 binding, inhibitor, fluorescence polarization |  |  | Ki | 1.09 µM |
| C#CCOc1cccc(C(=O)CC(SCc2cccc(Br)c2)C(=O)O)c1 (centres unmarked) | PLEKHA6 PH domain | PLEKHA6 PI(4,5)P2 binding, fluorescence polarization |  | added: BODIPY-PI(4,5)P2 tracer | Ki | 36.4 ± 4.5 µM |
| CC1CC(C)CN(c2ccc(C=NNc3nc(-c4ccc(Cl)c(Cl)c4)cs3)cc2)C1 (centres unmarked) | alpha-glucosidase | enzyme activity, inhibitor, Lineweaver-Burk plot |  | added: p-nitrophenyl-alpha-D-glucopyranoside | Ki | 11.1 ± 0.98 µM |
| Nc1nc2ncc(CNc3ccc(C(=O)N[C@@H](CCC(=O)O)C(=O)O)cc3)nc2c(=O)[nH]1 | Proton-coupled folate transporter (Homo sapiens, UniProt Q96NT5, H247A) | [3H]methotrexate uptake, inhibitor, Dixon plot | transfected cells wt-H247A | pH 5.5, added: [3H]methotrexate 0.5 µM | Ki | 0.12 ± 0.03 µM |
| NC(=O)OP(=O)(O)O | Urea transporter 1 | urea transport |  |  | Ki | no effect |
| CCc1oc2ccccc2c1C(=O)c1ccc(O)cc1 | CYP2E1 | p-nitrophenol hydroxylation, inhibitor | baculosomes | 10 min, with additive 100 µM | Ki | 9.1 µM |
| Cc1ccc(-c2csc(NN=Cc3ccc(N4CC(C)CC(C)C4)cc3)n2)cc1 (centres unmarked) | alpha-glucosidase | enzyme activity, inhibitor, Lineweaver-Burk plot |  | added: p-nitrophenyl-alpha-D-glucopyranoside | Ki | 18.7 ± 1.87 µM |
| CCOC(=O)c1cc(-c2ccc(OCC)cc2)oc1-c1ccc(Cl)cc1 | PLEKHA6 PH domain | PLEKHA6 PI(4,5)P2 binding, fluorescence polarization |  | added: BODIPY-PI(4,5)P2 tracer | Ki | > 100 µM |
| Nc1ncnc2c1ncn2[C@@H]1O[C@H](COP(=O)(O)OP(=O)(O)O)[C@@H](O)[C@H]1O | klp-6 (Caenorhabditis elegans, UniProt G5EFQ4, F120K) | microtubule gliding velocity, competitive inhibitor, single-molecule TIRF |  | pH 7.4, added: Mg-ATP varied, porcine microtubules | Ki | 242 ± 4 µM |
| COC(=O)c1cccnc1 | Urea transporter 1 | urea transport inhibition |  | added: thiourea | Ki | 20000 µM |
| Cc1cccc(C(=O)Nc2nnc(S(N)(=O)=O)s2)c1 | Enterococcus faecium γ-carbonic anhydrase | CO2 hydration, inhibitor, stopped-flow kinetics |  |  | Ki | 0.124 µM |
| CCc1oc2ccccc2c1C(=O)c1cc(I)c(O)c(I)c1 | CYP2E1 | p-nitrophenol hydroxylation, nonlinear fit | baculosomes | 10 min | Ki | 0.0031 µM |
| COC(=O)c1cc2cc(NC(=O)c3ccccn3)ccc2s1 | ELAVL1 | Msi1 binding, inhibitor, fluorescence polarization |  |  | Ki | > 20 µM |
| N#Cc1ccc([C@H]2CCc3cncn32)c(F)c1 | CYP2E1 | inhibitor, measured: chlorzoxazone 6-hydroxylation | pooled human liver microsomes | pH 7.4, added: chlorzoxazone | Ki | 0.482 ± 0.272 µM |
| NS(=O)(=O)c1nnc(NC(=O)C2CC23CCCOC3)s1 (centres unmarked) | Enterococcus faecium γ-carbonic anhydrase | CO2 hydration, inhibitor, stopped-flow kinetics |  |  | Ki | 0.206 µM |
| OC[C@H]1OC(O)[C@H](O)[C@@H](O)[C@@H]1O (some centres unmarked) | Hexokinase-3 (HK3, Homo sapiens, UniProt P52790, E254A) | substrate inhibition |  | mutant E254A, partial substrate inhibition model, added: ATP 20 mM | Ki | 3100 ± 400 µM |
| Cc1ccccc1-c1ccc([C@H]2[C@@H](CO)N3CCCCN(C(=O)CN4CCOCC4)C[C@@H]23)cc1 | IDE | enzyme activity, inhibitor, fluorogenic kinetic |  | added: Mca-RPPGFSAFK(Dnp)-OH substrate | EC50 | 25 µM |

| Compound | target | test | system | setting | measurement | result |
| --- | --- | --- | --- | --- | --- | --- |
| CCc1cc(/C(C)=N/OCc2ccc(C3CCCCC3)c(C(F)(F)F)c2)ccc1CN1CC(C(=O)O)C1 | SLCO1B1 (Homo sapiens, UniProt Q9Y6L6) | inhibitor | HEK293 transfected with SLCO1B1 | 3 min, added: estradiol-17β-glucuronide 1 µM | Ki | 0.299 µM |
| CCCCNC(N)=O | Urea transporter 1 | urea transport inhibition |  | added: thiourea | Ki | 25000 µM |
| CC(C)(C)n1nc(-c2ccc(Cl)cc2)c2c(N)ncnc21 | SRC (Gallus gallus, UniProt P00523) | enzyme activity, inhibitor |  |  | Ki | 0.05 µM |
| CC1CCCCC1CC(=O)Nc1nnc(S(N)(=O)=O)s1 (centres unmarked) | Enterococcus faecium γ-carbonic anhydrase | CO2 hydration, inhibitor, stopped-flow kinetics |  |  | Ki | 0.225 µM |
| COc1ccccc1C(=O)CC(SCc1ccc(Cl)cc1)C(=O)O (centres unmarked) | PLEKHA6 PH domain | PLEKHA6 PI(4,5)P2 binding, fluorescence polarization |  | added: BODIPY-PI(4,5)P2 tracer | Ki | 195 ± 2 µM |
| COc1ccc(-c2csc(NN=Cc3ccc(N4CC(C)CC(C)C4)cc3)n2)cc1 (centres unmarked) | alpha-glucosidase | enzyme activity, inhibitor, Lineweaver-Burk plot |  | added: p-nitrophenyl-alpha-D-glucopyranoside | Ki | 10.6 ± 0.89 µM |
| C=CCNC(N)=S | Urea transporter 1 | urea transport inhibition |  | added: thiourea | Ki | 30000 µM |
| CC1CC(C)CN(c2ccc(C=NNc3nc(-c4ccc(Br)cc4)cs3)cc2)C1 (centres unmarked) | alpha-glucosidase | enzyme activity, inhibitor, Lineweaver-Burk plot |  | added: p-nitrophenyl-alpha-D-glucopyranoside | Ki | 24.81 ± 0.15 µM |
| CC(C)(C(=O)Nc1nnc(S(N)(=O)=O)s1)C1CCCCC1 | Enterococcus faecium γ-carbonic anhydrase | CO2 hydration, inhibitor, stopped-flow kinetics |  |  | Ki | 0.52 µM |
| CCOC(=O)c1cc2cc(NC(=O)c3ccccn3)ccc2[nH]1 | ELAVL1 | Msi1 binding, inhibitor, fluorescence polarization |  |  | Ki | > 20 µM |
| NS(=O)(=O)c1nnc(NC(=O)CCC2CCC(F)(F)CC2)s1 | Enterococcus faecium γ-carbonic anhydrase | CO2 hydration, inhibitor, stopped-flow kinetics |  |  | Ki | 0.255 µM |
| C[C@H]1O[C@H](O[C@H]2[C@H](O)[C@@H](O)[C@@H](O[C@H]3[C@H](O)[C@@H](O)C(O)O[C@@H]3CO)O[C@@H]2CO)[C@H](O)[C@@H](O)[C@@H]1N[C@H]1C=C(CO)[C@@H](O)[C@H](O)[C@H]1O (some centres unmarked) | alpha-glucosidase | enzyme activity, inhibitor, Lineweaver-Burk plot |  | added: p-nitrophenyl-alpha-D-glucopyranoside | Ki | 23.5 ± 2.72 µM |
| CCCCN1CCC(COC(=O)c2ccc(N)c(OCF)c2)CC1 | benzodiazepine site (rat) | binding | rat brain |  | Ki | > 10 µM |
| CCOc1ccc(C(=O)CC(SCc2ccc(Cl)cc2)C(=O)O)cc1 (centres unmarked) | PLEKHA6 PH domain | PLEKHA6 PI(4,5)P2 binding, fluorescence polarization |  | added: BODIPY-PI(4,5)P2 tracer | Ki | 50.9 ± 3.9 µM |
| CC1(C)CCCN(CC(=O)Nc2nnc(S(N)(=O)=O)s2)C1 | Enterococcus faecium γ-carbonic anhydrase | CO2 hydration, inhibitor, stopped-flow kinetics |  |  | Ki | 0.0875 µM |
| CCc1oc2ccccc2c1C(=O)c1cc(Br)c(O)c(Br)c1 | CYP2E1 | p-nitrophenol hydroxylation, nonlinear fit | baculosomes | 10 min | Ki | 0.0034 µM |
| CCOc1ccc(C(=O)CC(SCc2ccc(Br)cc2)C(=O)O)cc1 (centres unmarked) | PLEKHA6 PH domain | PLEKHA6 PI(4,5)P2 binding, fluorescence polarization |  | added: BODIPY-PI(4,5)P2 tracer | Ki | 147 ± 15 µM |
| COC(=O)c1cc2cc(NC(=O)c3ccc(C(C)(C)C)cc3)ccc2s1 | ELAVL1 | Msi1 binding, inhibitor, fluorescence polarization |  |  | Ki | > 20 µM |
| CCOc1ccccc1C(=O)CC(SCc1ccc(Cl)cc1)C(=O)O (centres unmarked) | PLEKHA6 PH domain | PLEKHA6 PI(4,5)P2 binding, fluorescence polarization |  | added: BODIPY-PI(4,5)P2 tracer | Ki | 83 ± 12 µM |
| CNC(=S)NC | Urea transporter 1 | urea transport inhibition |  | added: thiourea | Ki | 300 µM |
| CCOc1ccc(C(=O)CC(SCc2ccc(Cl)cc2)C(=O)OC)cc1 (centres unmarked) | PLEKHA6 PH domain | PLEKHA6 PI(4,5)P2 binding, fluorescence polarization |  | added: BODIPY-PI(4,5)P2 tracer | Ki | > 1000 µM |
| C[C@H]1CCC[C@H](C(=O)Nc2nnc(S(N)(=O)=O)s2)C1 (racemic) | Enterococcus faecium γ-carbonic anhydrase | CO2 hydration, inhibitor, stopped-flow kinetics |  |  | Ki | 0.12 µM |

A few entries again:
| Compound | target | test | system | setting | measurement | result |
| --- | --- | --- | --- | --- | --- | --- |
| CC(C)(C(=O)Nc1nnc(S(N)(=O)=O)s1)C1CCCCC1 | Enterococcus faecium γ-carbonic anhydrase | CO2 hydration, inhibitor, stopped-flow kinetics |  |  | Ki | 0.52 µM |
| CCOc1ccc(C(=O)CC(SCc2ccc(Cl)cc2)C(=O)O)cc1 (centres unmarked) | PLEKHA6 PH domain | PLEKHA6 PI(4,5)P2 binding, fluorescence polarization |  | added: BODIPY-PI(4,5)P2 tracer | Ki | 50.9 ± 3.9 µM |
| COc1ccccc1C(=O)CC(SCc1ccc(Cl)cc1)C(=O)O (centres unmarked) | PLEKHA6 PH domain | PLEKHA6 PI(4,5)P2 binding, fluorescence polarization |  | added: BODIPY-PI(4,5)P2 tracer | Ki | 195 ± 2 µM |
